Results collected from several papers.
Protocols differ between the studies behind these lines. Numbers after ± are the reported error.

Oc1ccc2ccc3c4ccccc4cc4ccc1c2c43 — Cmax (UPLC-AMS; human, plasma; oral, 250 ng of [14C]-BaP): 9.34 ± 6.91 fg BaP equivalents/mL
CCCCCOc1ccc(-c2ccc(-c3ccc(C(=O)N[C@H]4C[C@@H](O)[C@@H](O)NC(=O)[C@@H]5[C@@H](O)[C@@H](C)CN5C(=O)[C@H]([C@@H](C)O)NC(=O)[C@H]([C@H](O)[C@@H](O)c5ccc(O)cc5)NC(=O)[C@@H]5C[C@@H](O)CN5C(=O)[C@H]([C@@H](C)O)NC4=O)cc3)cc2)cc1 — Cmax (human, plasma; intravenous, 3 mg/kg loading dose, day 1): 2900 ng/mL
Oc1ccc2cc3ccc4cccc5ccc(c2c1)c3c45 — Cmax (UPLC-AMS; human, plasma; oral, 25 ng of [14C]-BaP): 0.66 ± 0.06 fg BaP equivalents/mL
Cc1ncc2n1-c1ccc(Cl)cc1C(c1ccccc1F)=NC2 — Cmax (humans, plasma; oral, 2 mg, day 1): 11.6 ng/mL
COC(=O)N[C@H](C(=O)N1CCC[C@H]1C(=O)Nc1ccc([C@@H]2CC[C@@H](c3ccc(NC(=O)[C@@H]4CCCN4C(=O)[C@@H](NC(=O)OC)C(C)C)cc3)N2c2ccc(C(C)(C)C)cc2)cc1)C(C)C — Cmax (healthy human volunteers, plasma; oral, dose not given, alone, escitalopram interaction study): 111 ng/mL
CCC(=O)C(CC(C)N(C)C)(c1ccccc1)c1ccccc1 (centres unmarked) — Cmax (human, plasma; oral, 40 mg, day 9, steady state, dose-normalized, with: fesoterodine 600 mg ER twice daily): 415 ng/mL
CCCNS(=O)(=O)Nc1ncnc(OCCOc2ncc(Br)cn2)c1-c1ccc(Br)cc1 — Cmax (healthy adult humans, both sexes, plasma; oral, 10/40 mg fixed-dose combination, single dose, fasted): 210 ng/mL
CC[C@H](C)[C@H](NC(=O)[C@H](CC(C)C)NC(=O)[C@H](Cc1c[nH]c2ccccc12)NC(=O)[C@H](CCC(N)=O)NC(=O)[C@@H](NC(=O)[C@H](Cc1ccccc1)NC(=O)[C@H](C)NC(=O)[C@H](CCCCNC(=O)COCCOCCNC(=O)COCCOCCNC(=O)CC[C@H](NC(=O)CCCCCCCCCCCCCCCCCCC(=O)O)C(=O)O)NC(=O)[C@H](CCC(N)=O)NC(=O)[C@H](C)NC(=O)[C@@H](NC(=O)[C@H](CCCCN)NC(=O)[C@H](CC(=O)O)NC(=O)[C@H](CC(C)C)NC(=O)C(C)(C)NC(=O)[C@@H](NC(=O)[C@H](CO)NC(=O)[C@H](Cc1ccc(O)cc1)NC(=O)[C@H](CC(=O)O)NC(=O)[C@H](CO)NC(=O)[C@@H](NC(=O)[C@H](Cc1ccccc1)NC(=O)[C@@H](NC(=O)CNC(=O)[C@H](CCC(=O)O)NC(=O)C(C)(C)NC(=O)[C@@H](N)Cc1ccc(O)cc1)[C@@H](C)O)[C@@H](C)O)[C@@H](C)CC)[C@@H](C)CC)C(C)C)C(=O)N[C@@H](C)C(=O)NCC(=O)NCC(=O)N1CCC[C@H]1C(=O)N[C@@H](CO)C(=O)N[C@@H](CO)C(=O)NCC(=O)N[C@@H](C)C(=O)N1CCC[C@H]1C(=O)N1CCC[C@H]1C(=O)N1CCC[C@H]1C(=O)N[C@@H](CO)C(N)=O — Cmax (human, mild hepatic impairment (Child-Pugh A), plasma; subcutaneous, 5 mg single dose, geometric LS mean, weight-adjusted): 481 ng/mL
CN1CC(=O)N2[C@H](c3ccc4c(c3)OCO4)c3[nH]c4ccccc4c3C[C@@H]2C1=O — Cmax (healthy adult humans, both sexes, plasma; oral, 10/40 mg fixed-dose combination, single dose, fasted): 545 ng/mL
CC(C)c1nc(CN(C)C(=O)N[C@H](C(=O)N[C@@H](Cc2ccccc2)C[C@H](O)[C@H](Cc2ccccc2)NC(=O)OCc2cncs2)C(C)C)cs1 — Cmax (healthy human volunteers, plasma; oral, dose not given, with: digoxin plus 2D regimen): 2290 ng/mL
CC(C)C[C@H](CN)CC(=O)O — Cmax (human, plasma; oral, 150 mg, geometric mean): 3430 ng/mL
CCCCCOc1ccc(-c2cc(-c3ccc(C(=O)N[C@H]4C[C@@H](O)[C@@H](O)NC(=O)[C@@H]5[C@@H](O)[C@@H](C)CN5C(=O)[C@H]([C@H](O)CC(N)=O)NC(=O)[C@H]([C@H](O)[C@@H](O)c5ccc(O)c(OS(=O)(=O)O)c5)NC(=O)[C@@H]5C[C@@H](O)CN5C(=O)[C@H]([C@@H](C)O)NC4=O)cc3)no2)cc1 — Cmax (human paediatric patients 6 to sample C years, plasma; intravenous, 4.5 mg/kg once daily, day 7, mean): 20700 ng/mL
CN[C@@H]1C[C@H]2O[C@@](C)([C@@H]1OC)n1c3ccccc3c3c4c(c5c6ccccc6n2c5c31)C(=O)N[C@@H]4O — Cmax (human patients; intravenous infusion, 34 mg/m^2/24 h, 72 h infusion, cycle 1, mean, with: prednisone): 17200 ng/mL
Cc1ncc(OC[C@@]2(c3cccc(F)c3)C[C@H]2C(=O)Nc2ccc(F)cn2)c(C)n1 — Cmax (human, plasma; 10 mg, alone, geometric mean): 54.4 ng/mL
O[C@H]1CCCN[C@@H]1CCCn1cnc2c(Cl)c(Cl)ccc21 — Cmax (healthy human volunteers, plasma; oral, 200 mg, day 1, multiple ascending dose): 256 ng/mL
COc1ccsc1CNCC[C@@]1(c2ccccn2)CCOC2(CCCC2)C1 — Cmax (healthy human, normal renal function, plasma; intravenous, 1 mg single dose, arithmetic mean): 8.97 ng/mL
CC(=O)C[C@H](c1ccccc1)c1c(O)c2ccccc2oc1=O — Cmax (healthy human volunteers, plasma; dose not given, given alone): 269 ng/mL
CC[C@@]1(O)C(=O)OCc2c1cc1n(c2=O)Cc2cc3c(CN(C)C)c(O)ccc3nc2-1 — Cmax (human patients, plasma; oral, 8 mg weekly, geometric mean, with: pazopanib 800 mg daily): 46.8 ng/mL
O=c1[nH]c(Cc2ccccn2)nc2c1cnn2C1CCOCC1 — Cmax (healthy male human, plasma; oral, 10 mg, geometric mean): 223 nM
Cc1ncc2n1-c1ccc(Cl)cc1C(c1ccccc1F)=NC2 — Cmax (healthy human volunteers, plasma; oral, 5 mg single dose, geometric mean, with: water): 88 nM
COc1ccc(C[C@@H]2NC(=O)[C@H]([C@@H](C)O)NC(=O)[C@@H]3[C@@H]4CCN3C(=O)[C@@H]3Cc5cn(c6ccc(F)cc56)CCCCCCN(Cc5ccc(cc5)CCNC(=O)[C@]5(C)CCCN5C2=O)C(=O)CCC(=O)N[C@@H](C)C(=O)N[C@H](CNC(=O)CCCCC[N+](C)(C)C)C(=O)N[C@@H](Cc2cccc(c2)CNC(=O)CO4)C(=O)N3)cc1 — Cmax (fasted healthy humans, plasma; oral, 10 mg single dose, with 1800 mg Labrasol, geometric mean): 5.21 nM
Cc1cnc(C(=O)N[C@H]2CCCCC/C=C\[C@@H]3C[C@@]3(C(=O)NS(=O)(=O)C3CC3)NC(=O)[C@@H]3C[C@@H](Oc4nc5ccccc5c5ccccc45)CN3C2=O)cn1 — Cmax (healthy human volunteers, plasma; oral, dose not given, alone, pravastatin interaction study): 230 ng/mL
CC[C@H](C)[C@H](NC(=O)[C@H](CC(C)C)NC(=O)[C@H](Cc1c[nH]c2ccccc12)NC(=O)[C@H](CCC(N)=O)NC(=O)[C@@H](NC(=O)[C@H](Cc1ccccc1)NC(=O)[C@H](C)NC(=O)[C@H](CCCCNC(=O)COCCOCCNC(=O)COCCOCCNC(=O)CC[C@H](NC(=O)CCCCCCCCCCCCCCCCCCC(=O)O)C(=O)O)NC(=O)[C@H](CCC(N)=O)NC(=O)[C@H](C)NC(=O)[C@@H](NC(=O)[C@H](CCCCN)NC(=O)[C@H](CC(=O)O)NC(=O)[C@H](CC(C)C)NC(=O)C(C)(C)NC(=O)[C@@H](NC(=O)[C@H](CO)NC(=O)[C@H](Cc1ccc(O)cc1)NC(=O)[C@H](CC(=O)O)NC(=O)[C@H](CO)NC(=O)[C@@H](NC(=O)[C@H](Cc1ccccc1)NC(=O)[C@@H](NC(=O)CNC(=O)[C@H](CCC(=O)O)NC(=O)C(C)(C)NC(=O)[C@@H](N)Cc1ccc(O)cc1)[C@@H](C)O)[C@@H](C)O)[C@@H](C)CC)[C@@H](C)CC)C(C)C)C(=O)N[C@@H](C)C(=O)NCC(=O)NCC(=O)N1CCC[C@H]1C(=O)N[C@@H](CO)C(=O)N[C@@H](CO)C(=O)NCC(=O)N[C@@H](C)C(=O)N1CCC[C@H]1C(=O)N1CCC[C@H]1C(=O)N1CCC[C@H]1C(=O)N[C@@H](CO)C(N)=O — Cmax (human, moderate renal impairment, plasma; subcutaneous, 5 mg single dose, eGFR 30-59, geometric mean): 369 ng/mL
